Published values from different studies.
Numbered parts are unrelated; each lists some results of a single study. Positions count from the first letter of the parent shown.

Study 1 — technique: universal PBM; molecule type: double-stranded DNA, one strand shown; sample: in vitro; concentration: not given; reading: higher = stronger binding; quantity: E-score
Target: Sal-like protein 4, full length isoform B (SALL4, Homo sapiens, UniProt Q9UJQ4-2, residues 1-616)
Setting: 8-mer, flanks averaged, mean of replicates
ACCCAACT: -0.00117
AAGTTCGC: -0.262
GAATCATA: 0.354
GTGAGAAC: -0.108
AGCCGAGG: -0.2
CTAGATAG: 0.0468
GGGAGTGA: 0.0398
ATTATTTA: 0.409
CGAAGACC: -0.176
ATCTTGTG: 0.0793
ATCTACTC: 0.0585
GTAGGCTA: -0.0689
ATGGTGGC: -0.114
AGCTACAA: 0.0272
GATTGTCC: -0.167
CGTTAACG: -0.0795
ATTGACGA: 0.22
ATGCGGCG: -0.116
AGTTACGC: -0.105
AAAAACCA: 0.271
GCTCCTAA: -0.161
ACGGGGTG: -0.248
GCAAATGC: -0.102
CGAGCGTA: 0.0498

Study 2 — target: CEBPA, bZIP domain (human); technique: DHFR protein complementation; sample: yeast; baseline: wild-type JUN-FOS pair; reading: higher = stronger binding; quantity: binding fitness
Setting: single substitutions, most at no-binding floor
Starting sequence: JUN, bZIP domain (human); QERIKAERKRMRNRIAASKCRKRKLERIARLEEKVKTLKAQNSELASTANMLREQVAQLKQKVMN; partner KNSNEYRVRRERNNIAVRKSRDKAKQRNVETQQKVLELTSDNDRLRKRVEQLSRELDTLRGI
N42G: -1.46 natural log
I28K: -1.45 natural log
A57S: -1.32 natural log
T48C: -1.35 natural log
N42H: -1.49 natural log
T37I: -1.39 natural log
L31D: -1.44 natural log
E33V: -1.38 natural log
I28Y: -1.47 natural log
T37Y: -1.46 natural log
Q41N: -1.53 natural log
N42Y: -1.5 natural log
R30A: -1.42 natural log
M51T: -1.33 natural log
L45A: -1.45 natural log
A49D: -1.46 natural log
K39L: -1.42 natural log
S43H: -1.47 natural log

Study 3 — cell line: yeast with cyclin D2-Cln2 chimera; observed: cell growth; action: binder; technique: competitive growth deep sequencing; molecule type: peptide; concentration: concentration not given; setting: peptide tiling library; reading: direction not given; quantity: growth enrichment score
ISRLFPPRTPGWHQLQ: -0.874
GPVKLEFDVSDGAT: -1.06
KVRRNLFNQELLSP: -0.226
NRLLKLFTRCLTPLVP: -1.54
LAKRALKYTD: 0.156
SPREGHMMDALYAQVK: 1.36
PPTFLSTGEIHAFLSS: -0.427
RRRRLLFWDKETQI: -0.525
VSRNLRSSLKSSLHTL: -0.194
NLEPNAEFDKRTEFIT: 0.731
YLYLLLTQSLWCRV: -0.283
EHCRVLFLDHVMYTIH: 0.039

Study 4 — target: BIRC6 UBC core domain (UniProt Q9NR09); technique: yeast two-hybrid; sample: yeast; setting: mostly zero background; baseline: not given; reading: higher = stronger interaction; quantity: lacZ reporter activity
B1: MDM2 RING domain (UniProt Q00987); chain TQDKEESVESSLPLNAIEPCVICQGRPKNGCIVHGKTGHLMACFTCAKKLKKRNKPCPVCRQPIQMIVLTYFP
B2: ARIH1 RING domain (UniProt Q9Y4X5); chain NTRSSAQDMPCQICYLNYPNSYFTGLECGHKFCMQCWSEYLTTKIMEEGMGQTISCPAHGCDILVDDNTVM
B3: TRIM28 RING domain (UniProt Q13263); chain GAEALELLEHCGVCRERLRPEREPRLLPCLHSACSACLGPAAPAAANSSGDGGAAGDGTVVDCPVCKQQCFSKDIVE
B4: RNF17 RING domain (UniProt Q9BXT8); chain SQPWGAAEIQCTRCGRRVSRSSGHHCELQCGHAFCELCLLMTEECTTIICPDCEVATAVNTRQR
B5: NHLRC1 RING domain (UniProt Q6VVB1); chain MREAEISLLECKVCFEKFGHRQQRRPRNLSCGHVVCLACVAALAHPRTLALECPFCRRACRGCDTSD
B6: SHPRH RING domain (UniProt Q149N8); chain KTSGGVNPEPCPICARQLGKQWAVLTCGHCFCNECISIIIEQYSVGSHRSSIKCAICRQTTSHKEISY
B7: TRIM32 RING domain (UniProt Q13049); chain NLDALREVLECPICMESFTEEQLRPKLLHCGHTICRQCLEKLLASSINGVRCPFCSKITRITSLTQ
B8: CBLL1 RING domain (UniProt Q75N03); chain GEKDDTPVHFCDKCGLPIKIYGRMIPCKHVFCYDCAILHEKKGDKMCPGCSDPVQRIEQCT
Target sequence (chain): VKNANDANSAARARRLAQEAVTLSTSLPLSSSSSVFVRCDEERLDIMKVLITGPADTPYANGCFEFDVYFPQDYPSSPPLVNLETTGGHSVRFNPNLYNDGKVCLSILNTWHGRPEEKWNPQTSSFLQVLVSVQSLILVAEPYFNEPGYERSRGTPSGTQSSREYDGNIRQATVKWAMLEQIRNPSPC
B1 (MDM2 RING domain): 0
KITELNPHLMCALCGGYFIDATTIVECLHSFCKTCIVRYLETNKYCPMCDVQVHKTRPLL (PCGF2 RING domain (UniProt P35227)): 0
B2 (ARIH1 RING domain): 0
B3 (TRIM28 RING domain): 0
B4 (RNF17 RING domain): 0
AAQLLEEKLTCAICLGLYQDPVTLPCGHNFCGACIRDWWDRCGKACPECREPFPDGAELR (TRIM65 RING domain (UniProt Q6PJ69)): 0
B5 (NHLRC1 RING domain): 0
B6 (SHPRH RING domain): 0
B7 (TRIM32 RING domain): 0
B8 (CBLL1 RING domain): 0

Study 5 — technique: protein-binding microarray; molecule type: double-stranded DNA, one strand shown; sample: in vitro; concentration: 250 nM; setting: 60-bp whole probe; with: salmon DNA 0.4 mg/ml; baseline: random background probes; reading: higher = stronger binding; quantity: log fluorescence; all sequences stand within: GCCTAGCAC … GTCTTGATTCGCTTGACGCTGCTG
Target: Interferon regulatory factor 7, full length, phosphomimetic (IRF7, Homo sapiens, UniProt Q92985, residues 1-503, S101K/S471D/S472D/S475D/S476D/S477D/S483D/S484D/S487D)
Chain of UniProt Q92985 (whole entry, unmodified, looked up): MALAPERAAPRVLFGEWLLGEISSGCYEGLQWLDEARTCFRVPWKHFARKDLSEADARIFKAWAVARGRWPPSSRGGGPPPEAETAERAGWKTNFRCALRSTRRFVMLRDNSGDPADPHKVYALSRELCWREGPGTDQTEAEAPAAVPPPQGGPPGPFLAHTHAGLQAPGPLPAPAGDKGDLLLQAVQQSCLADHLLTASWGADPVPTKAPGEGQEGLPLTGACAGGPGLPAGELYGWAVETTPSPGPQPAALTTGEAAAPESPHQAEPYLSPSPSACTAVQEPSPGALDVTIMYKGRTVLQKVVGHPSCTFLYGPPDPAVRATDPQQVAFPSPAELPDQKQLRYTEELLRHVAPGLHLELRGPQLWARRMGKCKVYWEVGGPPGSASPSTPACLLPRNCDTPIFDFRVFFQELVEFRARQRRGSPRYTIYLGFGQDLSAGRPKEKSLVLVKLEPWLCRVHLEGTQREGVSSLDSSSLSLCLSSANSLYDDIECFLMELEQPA
TCACTCTTCTGGATCTCACTGTGCTAG: 0.313 z-score
GACGGTATCGACACTGTGGACGTGCTA: -0.329 z-score
TTAGACTTCGGGACTGGATTAGTGCTA: -0.364 z-score
TTAGGTGTCGACACTGGGTTAGTGCTA: -0.487 z-score
TTAGATTTCGAGACTGGATTAGTGCTA: 0.171 z-score
GACGGTATCGGTATCGGGAAGTGCTAG: 1.41 z-score
TCAGATTTTGTCCTCCCACTGTGCTAG: 0.133 z-score
GACGGTCTCCTATTCCTGACGTGCTAG: 0.435 z-score
GACGATACCGGGTATCGAGACGTGCTA: 0.251 z-score
TTAGATATCGGGCCTGGATTAGTGCTA: 0.0259 z-score
TCAATAATGGATATATAACTGTGCTAG: -0.111 z-score
TCATCTTGTTCTCTCTGACTGTGCTAG: 0.639 z-score
ATGCCTTTCGTCAAGAAGACGTGCTAG: 0.606 z-score
GACGATATCGGGACTGGAGAGGTGCTA: -0.236 z-score
GTAGATTTCAGTCTCGATTAGTGCTAG: 1.41 z-score
GACGGTATCGGGTATGGGGACGTGCTA: -0.0768 z-score
CTAGAACTGAGTATCGATTAGTGCTAG: 0.846 z-score
TCATCTCTGCCACTCAGACTGTGCTAG: 0.363 z-score
CTAGGTTCCGGTTTCGGTTAGTGCTAG: 11.2 z-score
TTAGGTTTCGGGACTGGGATAGTGCTA: 4 z-score
TTAGATCTCAGACTGGACTAGTGCTAG: 0.165 z-score
TTAGGTATCTGTATCGGTTAGTGCTAG: 0.337 z-score
TTAGGACTGGGGTTTGGGTTAGTGCTA: -0.175 z-score
TCAGCTTTAGTCATTCACACTGTGCTA: -0.481 z-score

Study 6 — technique: protein binding microarray; molecule type: double-stranded DNA, one strand shown; sample: in vitro; concentration: not given; baseline: not given; reading: higher = stronger binding; quantity: E-score
Target: Histone acetyltransferase KAT6A, both winged helices, GST fusion (KAT6A, Homo sapiens, UniProt Q92794, residues 1-181)
Setting: 8-mer, flanks averaged, mean of 2 arrays, mostly near background
Target sequence (chain): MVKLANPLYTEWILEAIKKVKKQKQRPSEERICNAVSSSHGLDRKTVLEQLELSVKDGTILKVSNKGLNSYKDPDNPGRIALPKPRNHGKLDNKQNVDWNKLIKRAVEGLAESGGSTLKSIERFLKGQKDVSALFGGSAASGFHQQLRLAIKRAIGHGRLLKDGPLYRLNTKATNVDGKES
AAAGATAT: -0.149
ATGACGGC: 0.251
GCTTCGGA: 0.101
ACGACCGT: 0.145
CATGATCG: 0.0175
CTACCTTC: -0.104
GCAGATTA: -0.086
TGTCGGAA: 0.0883
CGATTTAG: 0.148
AGGTCCCA: -0.221
CTGGCGGC: 0.237
CCCAGGCG: -0.131
ATTCTTCG: -0.0113
CAACCACC: -0.115
CTTTATCC: -0.00851
AAAGTGAA: -0.0586

A few entries again (study 1):
CGAAGACC: -0.176
ATCTTGTG: 0.0793
ATCTACTC: 0.0585
GTAGGCTA: -0.0689
ATGGTGGC: -0.114
AGCTACAA: 0.0272
GATTGTCC: -0.167
CGTTAACG: -0.0795
ATTGACGA: 0.22
